Experimental data of several laboratories.
Lines come from different studies, so protocols differ.

SMILES | test | system | conditions | endpoint | value
CN(Cc1cnc2nc(N)nc(N)c2n1)c1ccc(C(=O)N[C@@H](CCC(=O)O)C(=O)O)cc1 | measured: Diarrhea | healthy human | oral, dose not given | subjects with adverse event | 0%
C=C(C)[C@@H]1CC[C@]2(NCCN3CCS(=O)(=O)CC3)CC[C@]3(C)[C@H](CC[C@@H]4[C@@]5(C)CC=C(C6=CC[C@@](CF)(C(=O)O)CC6)C(C)(C)[C@@H]5CC[C@]43C)[C@@H]12 | – | healthy human volunteers | oral, 500 mg, 7 days | subjects with nervous system disorders | 0%
CC(=O)CC(c1ccccc1)c1c(O)c2ccccc2oc1=O (stereo not drawn) | – | human | concentration not given, trial 1 | subjects with eye disorders | 0%
CC[C@H](C)[C@H](NC(=O)[C@H](Cc1ccccc1)NC(=O)[C@H](CCC(=O)O)NC(=O)[C@H](CCCCNC(=O)COCCOCCNC(=O)COCCOCCNC(=O)CC[C@H](NC(=O)CCCCCCCCCCCCCCCCC(=O)O)C(=O)O)NC(=O)[C@H](C)NC(=O)[C@H](C)NC(=O)[C@H](CCC(N)=O)NC(=O)CNC(=O)[C@H](CCC(=O)O)NC(=O)[C@H](CC(C)C)NC(=O)[C@H](Cc1ccc(O)cc1)NC(=O)[C@H](CO)NC(=O)[C@H](CO)NC(=O)[C@@H](NC(=O)[C@H](CC(=O)O)NC(=O)[C@H](CO)NC(=O)[C@@H](NC(=O)[C@H](Cc1ccccc1)NC(=O)[C@@H](NC(=O)CNC(=O)[C@H](CCC(=O)O)NC(=O)C(C)(C)NC(=O)[C@@H](N)Cc1cnc[nH]1)[C@@H](C)O)[C@@H](C)O)C(C)C)C(=O)N[C@@H](C)C(=O)N[C@@H](Cc1c[nH]c2ccccc12)C(=O)N[C@@H](CC(C)C)C(=O)N[C@H](C(=O)N[C@@H](CCCNC(=N)N)C(=O)NCC(=O)N[C@@H](CCCNC(=N)N)C(=O)NCC(=O)O)C(C)C | – | healthy human | subcutaneous, 0.25 to 1.5 mg weekly, 16 weeks | subjects with adverse events | 83.1%
CC(C)(C(=O)N1CCOc2c(C#N)cncc2C1)C(F)F | – | human, both sexes | oral, 40 mg single dose | subjects with thrombophlebitis TEAE | 0%
CC(=O)N(C)[C@H]1CCN(C(=O)c2cnc3c(c2)C[C@](C)(c2ccc(F)cc2)N3)C1 | – | healthy male human | oral, dose not given, all doses pooled | subjects with any AE | 70.8%
Cc1nc(Nc2ncc(C(=O)Nc3c(C)cccc3Cl)s2)cc(N2CCN(CCO)CC2)n1 | – | human | oral, 100 mg | subjects with serious AE | 0%
Cc1cc(-c2nccc3c2ccn3CC(=O)Nc2ccc(-c3cnccn3)cn2)ccn1 | – | human | MAD part, 5 mg once daily | subjects with any IMP-related TEAE | 25%
C[C@@H](N)c1cc(Cl)ccc1Cn1c(=S)[nH]c(=O)c2[nH]ccc21 | – | human matched controls | oral, 2.5 mg single dose | subjects with adverse events | 20%
CN1C(=O)[C@@H](NC(=O)c2nnc(Cc3ccccc3)[nH]2)COc2cccnc21 | – | human, fasted | oral, 400 mg single dose | subjects with headache | 0%
COC(=O)N[C@H](C(=O)N1CCC[C@H]1c1ncc(-c2cc(F)c3c(c2)O[C@@H](c2cnc(C4CC4)s2)n2c-3cc3cc(-c4cnc([C@@H]5CCCN5C(=O)[C@@H](NC(=O)OC)C(C)C)[nH]4)ccc32)[nH]1)C(C)C | – | healthy adult human | oral, 180 mg, 6 days, compound alone | subjects with procedural dizziness | 0%
CN(C)C(=N)N=C(N)N | measured: nervous system disorders | healthy human | oral, dose not given | subjects with adverse event | 20.8%
C=CC(=O)NC1CCN(c2ncc3ncnc(Nc4ccc(Oc5ccc6c(c5)ncn6C)c(C)c4)c3n2)CC1 | – | healthy male human | oral, 60 mg, 2 weeks, maximum CTCAE grade 1 | subjects with adverse events | 75%
C[C@H]1CN(C(=O)CC#N)[C@]12CCN(c1ncnc3[nH]ccc13)C2 | – | healthy human | oral, dose not given | subjects with Nausea | 3.1%
O=C(COc1ccc(Cl)cc1)NC12CC(c3nnc([C@H]4C[C@@H](OC(F)(F)F)C4)o3)(C1)C2 | – | humans | concentration not given | subjects with mild TEAE | 57.1%

A few entries again:
SMILES | test | system | conditions | endpoint | value
CC(=O)CC(c1ccccc1)c1c(O)c2ccccc2oc1=O (stereo not drawn) | – | human | concentration not given, trial 1 | subjects with eye disorders | 0%
CC(C)(C(=O)N1CCOc2c(C#N)cncc2C1)C(F)F | – | human, both sexes | oral, 40 mg single dose | subjects with thrombophlebitis TEAE | 0%
